# Published values collected from several papers.
# Every numbered part comes from another study and shows a few of its results, in no order.
# Chain of UniProt P42336 (whole entry, unmodified, looked up): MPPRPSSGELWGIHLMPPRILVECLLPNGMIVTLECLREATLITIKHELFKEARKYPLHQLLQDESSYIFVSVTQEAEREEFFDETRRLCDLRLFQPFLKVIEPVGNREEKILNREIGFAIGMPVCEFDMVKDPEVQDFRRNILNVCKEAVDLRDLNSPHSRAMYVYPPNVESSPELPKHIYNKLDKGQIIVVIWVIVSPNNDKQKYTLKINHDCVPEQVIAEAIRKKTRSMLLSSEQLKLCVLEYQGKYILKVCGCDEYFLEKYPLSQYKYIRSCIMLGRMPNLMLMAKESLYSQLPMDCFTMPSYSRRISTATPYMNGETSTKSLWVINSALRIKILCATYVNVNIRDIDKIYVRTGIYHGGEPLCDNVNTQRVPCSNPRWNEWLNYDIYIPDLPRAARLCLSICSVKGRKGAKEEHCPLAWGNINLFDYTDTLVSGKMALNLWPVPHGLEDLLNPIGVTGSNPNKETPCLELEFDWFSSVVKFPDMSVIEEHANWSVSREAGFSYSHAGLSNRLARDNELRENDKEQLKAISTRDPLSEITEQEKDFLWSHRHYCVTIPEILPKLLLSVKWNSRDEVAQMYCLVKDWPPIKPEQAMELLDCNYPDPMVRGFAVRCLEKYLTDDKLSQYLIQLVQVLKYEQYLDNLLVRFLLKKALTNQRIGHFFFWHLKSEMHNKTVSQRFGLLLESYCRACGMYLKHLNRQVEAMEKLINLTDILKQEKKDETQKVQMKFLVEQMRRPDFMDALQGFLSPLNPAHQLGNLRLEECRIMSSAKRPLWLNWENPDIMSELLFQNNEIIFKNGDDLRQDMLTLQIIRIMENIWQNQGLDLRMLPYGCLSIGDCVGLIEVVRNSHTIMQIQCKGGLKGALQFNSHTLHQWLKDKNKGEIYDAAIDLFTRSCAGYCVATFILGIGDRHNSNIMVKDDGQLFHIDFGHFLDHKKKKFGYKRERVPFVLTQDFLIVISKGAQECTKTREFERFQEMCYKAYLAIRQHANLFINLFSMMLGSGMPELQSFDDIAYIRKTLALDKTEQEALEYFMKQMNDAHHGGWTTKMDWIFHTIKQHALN
# Chain of UniProt P51957 (whole entry, looked up): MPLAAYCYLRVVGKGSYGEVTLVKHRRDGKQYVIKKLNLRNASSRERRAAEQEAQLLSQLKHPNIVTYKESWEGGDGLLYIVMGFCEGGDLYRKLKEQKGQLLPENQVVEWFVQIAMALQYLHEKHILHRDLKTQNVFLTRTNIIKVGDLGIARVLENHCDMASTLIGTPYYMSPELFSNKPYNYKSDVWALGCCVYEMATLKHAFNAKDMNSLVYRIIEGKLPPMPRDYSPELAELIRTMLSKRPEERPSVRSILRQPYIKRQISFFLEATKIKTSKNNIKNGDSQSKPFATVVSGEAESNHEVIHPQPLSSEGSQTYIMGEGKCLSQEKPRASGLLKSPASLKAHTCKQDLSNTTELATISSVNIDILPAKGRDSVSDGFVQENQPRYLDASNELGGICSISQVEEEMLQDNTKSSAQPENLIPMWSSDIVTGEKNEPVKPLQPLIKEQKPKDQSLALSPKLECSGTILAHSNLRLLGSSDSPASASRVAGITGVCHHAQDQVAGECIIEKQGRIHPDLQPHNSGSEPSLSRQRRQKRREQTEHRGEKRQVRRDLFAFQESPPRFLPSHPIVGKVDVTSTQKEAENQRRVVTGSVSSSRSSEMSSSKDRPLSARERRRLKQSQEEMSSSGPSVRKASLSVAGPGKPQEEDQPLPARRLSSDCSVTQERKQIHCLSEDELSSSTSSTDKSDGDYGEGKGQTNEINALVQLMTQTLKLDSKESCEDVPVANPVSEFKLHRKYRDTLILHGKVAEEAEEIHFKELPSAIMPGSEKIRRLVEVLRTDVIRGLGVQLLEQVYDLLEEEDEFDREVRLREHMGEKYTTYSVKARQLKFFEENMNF
# Chain of UniProt P46734 (whole entry, looked up): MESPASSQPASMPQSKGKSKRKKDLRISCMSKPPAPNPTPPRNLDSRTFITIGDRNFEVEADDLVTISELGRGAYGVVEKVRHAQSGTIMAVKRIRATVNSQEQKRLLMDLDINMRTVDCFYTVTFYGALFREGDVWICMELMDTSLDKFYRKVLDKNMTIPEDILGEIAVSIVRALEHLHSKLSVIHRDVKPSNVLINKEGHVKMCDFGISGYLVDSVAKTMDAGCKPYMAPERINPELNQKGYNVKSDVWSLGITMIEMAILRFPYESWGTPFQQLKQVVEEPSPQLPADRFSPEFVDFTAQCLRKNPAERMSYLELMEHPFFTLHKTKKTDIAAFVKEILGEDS
# Chain of UniProt P23458 (whole entry, looked up): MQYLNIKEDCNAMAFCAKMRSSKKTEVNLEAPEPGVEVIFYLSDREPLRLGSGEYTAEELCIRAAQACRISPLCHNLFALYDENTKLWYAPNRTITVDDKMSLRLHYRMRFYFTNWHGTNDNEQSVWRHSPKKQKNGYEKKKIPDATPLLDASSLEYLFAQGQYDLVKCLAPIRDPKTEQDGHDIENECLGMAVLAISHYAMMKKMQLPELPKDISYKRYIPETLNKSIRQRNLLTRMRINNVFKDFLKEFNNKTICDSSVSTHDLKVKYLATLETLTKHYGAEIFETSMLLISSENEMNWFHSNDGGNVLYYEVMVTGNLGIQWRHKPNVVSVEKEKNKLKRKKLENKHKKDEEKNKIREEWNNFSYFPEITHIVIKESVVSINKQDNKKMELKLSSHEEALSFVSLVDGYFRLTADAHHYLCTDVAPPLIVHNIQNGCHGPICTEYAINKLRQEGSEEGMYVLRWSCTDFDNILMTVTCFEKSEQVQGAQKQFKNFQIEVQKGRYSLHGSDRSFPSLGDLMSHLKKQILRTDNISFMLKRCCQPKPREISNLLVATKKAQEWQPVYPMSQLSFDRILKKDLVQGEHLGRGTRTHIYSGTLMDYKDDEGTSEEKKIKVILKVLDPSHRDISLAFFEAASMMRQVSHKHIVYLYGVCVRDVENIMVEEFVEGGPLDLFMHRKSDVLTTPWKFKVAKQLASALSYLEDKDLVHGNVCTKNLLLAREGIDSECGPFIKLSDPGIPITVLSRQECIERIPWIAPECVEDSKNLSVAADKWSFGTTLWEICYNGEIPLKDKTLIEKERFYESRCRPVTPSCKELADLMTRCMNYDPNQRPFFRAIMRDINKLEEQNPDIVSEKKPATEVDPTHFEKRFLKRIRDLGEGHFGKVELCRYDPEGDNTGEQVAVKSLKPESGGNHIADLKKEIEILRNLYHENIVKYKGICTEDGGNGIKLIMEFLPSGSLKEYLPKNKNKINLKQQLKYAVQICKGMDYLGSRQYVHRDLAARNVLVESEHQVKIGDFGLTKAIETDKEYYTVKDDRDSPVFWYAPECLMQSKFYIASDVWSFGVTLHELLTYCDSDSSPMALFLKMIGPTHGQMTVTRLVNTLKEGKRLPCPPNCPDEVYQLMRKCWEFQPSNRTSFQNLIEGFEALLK
# Chain of UniProt P45985 (whole entry, looked up): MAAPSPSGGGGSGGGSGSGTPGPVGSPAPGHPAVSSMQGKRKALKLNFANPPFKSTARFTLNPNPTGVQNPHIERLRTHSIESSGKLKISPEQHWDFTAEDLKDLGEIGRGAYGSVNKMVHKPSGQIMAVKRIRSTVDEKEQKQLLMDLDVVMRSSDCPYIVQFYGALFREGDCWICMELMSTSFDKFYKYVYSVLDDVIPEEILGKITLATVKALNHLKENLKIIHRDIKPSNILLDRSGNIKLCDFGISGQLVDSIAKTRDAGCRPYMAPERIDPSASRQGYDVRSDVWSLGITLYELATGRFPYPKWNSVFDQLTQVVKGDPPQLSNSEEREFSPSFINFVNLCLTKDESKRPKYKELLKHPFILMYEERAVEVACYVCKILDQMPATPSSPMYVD

# Study 1
# Target: Ephrin type-A receptor 1 (EPHA1, Homo sapiens, UniProt P21709)
# Chain of UniProt P21709 (whole entry, looked up): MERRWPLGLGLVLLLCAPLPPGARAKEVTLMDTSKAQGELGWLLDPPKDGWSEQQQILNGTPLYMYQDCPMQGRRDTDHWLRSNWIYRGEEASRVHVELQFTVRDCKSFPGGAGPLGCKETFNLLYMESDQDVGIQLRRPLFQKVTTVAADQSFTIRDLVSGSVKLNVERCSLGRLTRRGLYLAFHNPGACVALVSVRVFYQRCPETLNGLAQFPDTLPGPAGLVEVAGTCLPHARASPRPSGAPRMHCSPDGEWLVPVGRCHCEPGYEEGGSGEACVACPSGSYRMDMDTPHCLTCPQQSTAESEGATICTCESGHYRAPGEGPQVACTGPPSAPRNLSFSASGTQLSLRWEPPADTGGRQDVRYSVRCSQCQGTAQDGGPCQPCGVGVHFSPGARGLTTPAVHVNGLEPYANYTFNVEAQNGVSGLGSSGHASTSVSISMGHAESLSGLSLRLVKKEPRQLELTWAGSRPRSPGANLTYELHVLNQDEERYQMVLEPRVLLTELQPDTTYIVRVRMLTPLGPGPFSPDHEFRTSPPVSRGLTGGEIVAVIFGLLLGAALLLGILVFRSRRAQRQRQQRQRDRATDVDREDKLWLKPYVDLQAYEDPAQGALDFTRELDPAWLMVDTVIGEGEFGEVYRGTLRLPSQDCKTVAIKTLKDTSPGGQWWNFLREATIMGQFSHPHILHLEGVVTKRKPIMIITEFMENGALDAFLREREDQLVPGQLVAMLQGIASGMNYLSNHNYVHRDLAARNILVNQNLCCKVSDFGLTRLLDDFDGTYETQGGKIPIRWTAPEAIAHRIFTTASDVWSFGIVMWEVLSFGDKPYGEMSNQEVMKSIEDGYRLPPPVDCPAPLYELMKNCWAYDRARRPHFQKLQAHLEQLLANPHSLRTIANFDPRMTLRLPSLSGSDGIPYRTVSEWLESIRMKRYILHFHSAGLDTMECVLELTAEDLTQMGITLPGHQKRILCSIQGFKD
# Read-out: enzyme activity
# Mode: inhibitor
# Tested at: 0.5 µM
# Baseline: control
Structure (SMILES),remaining activity
Nc1ccc2ncnc(NCCc3ccc(Oc4ccccc4)cc3)c2c1,86.6%
O=C(O)c1ccc2c3c1cccc3c(=O)n1c3ccccc3nc21,95.3%
COc1cc2nccc(Oc3ccc(NC(=S)NC(=O)c4ccccc4C)cc3)c2cc1OC,83%
Cc1ccc(NC(=O)c2ccc(CN3CCN(C)CC3)cc2)cc1Nc1nc(-c2cccnc2)cs1,96.5%
Nc1ncnc2n[nH]c(Nc3ccc(F)cc3)c12,101%
CN(C)c1ccc(C=C2C(=O)Nc3ccccc32)cc1,93.7%
CC(C)[C@H](CO)Nc1nc(Nc2cc(N)cc(Cl)c2)c2ncn(C(C)C)c2n1,76.9%
Nc1[nH]nc2nc3ccccc3nc12,100%
O=C1NC(=O)C(c2cn(CCCn3ccnc3)c3ccccc23)=C1Nc1ccccc1,101%
O=C(CCCc1ccc(-c2ccccc2F)cc1)Nc1ccc(O)cc1,117%
COc1ccc(C(=O)Nc2sc3c(c2C(N)=O)CCCC3)cc1OC,88.1%
Cc1nc(-c2ccccc2)c(-c2ccncc2)o1,93.8%
COc1cc2ncnc(Nc3ccc(F)c(Cl)c3)c2cc1OCCCN1CCOCC1,87.4%
C#Cc1cccc(Nc2ncnc3cc(OCCOC)c(OCCOC)cc23)c1,94.5%
O=C(Nc1cccc(Nc2cc(Nc3cccc(C(F)(F)F)c3)ncn2)c1)C1CC1,92.9%
CNC(=O)c1cc(Oc2ccc(NC(=O)Nc3ccc(Cl)c(C(F)(F)F)c3)cc2)ccn1,87.7%

# Study 2
# Cell line: HaCaT
# Tested at: 100 µM
# Time: 60 h
SMILES,viability [%]
Cn1nnc2c(C(N)=O)ncn2c1=O,142
Oc1cc(O)c(Cl)cn1,141
CCCCCCCCCC[C@H](C(=O)O)[C@]1(C(=O)O)CCC(=O)O1,135
Cc1ccsc1C(=CCCN1CCC[C@@H](C(=O)O)C1)c1sccc1C,79.4

# Study 3
# SMILES: C[C@H]1CC[C@H](n2c3cnccc3c3cnc(Nc4ccc5c(n4)CCN(C(=O)CO)C5)nc32)CC1
# Read-out: cell-free assay
# Tested at: 1 µM
target,remaining signal [%]
"Dual specificity mitogen-activated protein kinase kinase 4 (MAP2K4, Homo sapiens, UniProt P45985)",5.8
"Serine/threonine-protein kinase 24 (STK24, Homo sapiens, UniProt Q9Y6E0)",52
"Serine/threonine-protein kinase 38 (STK38, Homo sapiens, UniProt Q15208)",82
"Dual specificity mitogen-activated protein kinase kinase 3 (MAP2K3, Homo sapiens, UniProt P46734)",8.1
"Serine/threonine-protein kinase Nek4 (NEK4, Homo sapiens, UniProt P51957)",100
"Serine/threonine-protein kinase Nek3 (NEK3, Homo sapiens, UniProt P51956)",100
"Phosphatidylinositol 4,5-bisphosphate 3-kinase catalytic subunit alpha isoform (PIK3CA, Homo sapiens, UniProt P42336)",100
"Serine/threonine-protein kinase ULK2 (ULK2, Homo sapiens, UniProt Q8IYT8)",74
"Tyrosine-protein kinase ZAP-70 (ZAP70, Homo sapiens, UniProt P43403)",100

# Study 4
# Structure (SMILES): COc1cc(-c2cn(C3CCc4ccccc4N(CC(F)(F)F)C3=O)nn2)ccc1-n1ccc(C)n1 (stereo not drawn)
# Method: competition with immobilised ligand
# Tested at: 1 µM
target,read-out,remaining binding
"Tyrosine-protein kinase receptor TYRO3 (TYRO3, Homo sapiens, UniProt Q06418)",cell-free assay,100%
"Serine/threonine-protein kinase 38-like (STK38L, Homo sapiens, UniProt Q9Y2H1)",binding,75%
"Serine/threonine-protein kinase pim-1 (PIM1, Homo sapiens, UniProt P11309)",cell-free assay,100%
"Tyrosine-protein kinase Mer (MERTK, Homo sapiens, UniProt Q12866)",cell-free assay,100%
"Bone morphogenetic protein receptor type-1A (BMPR1A, Homo sapiens, UniProt P36894)",binding,89%
"Mitogen-activated protein kinase kinase kinase kinase 3 (MAP4K3, Homo sapiens, UniProt Q8IVH8)",cell-free assay,100%
"Serine/threonine-protein kinase LATS1 (LATS1, Homo sapiens, UniProt O95835)",cell-free assay,71%
"Serine/threonine-protein kinase Chk1 (CHEK1, Homo sapiens, UniProt O14757)",cell-free assay,100%
"Tyrosine-protein kinase JAK1, JH2 (JAK1, Homo sapiens, UniProt P23458)",cell-free assay,87%
"Phosphatidylinositol 4,5-bisphosphate 3-kinase catalytic subunit alpha isoform (PIK3CA, Homo sapiens, UniProt P42336, E545A)",cell-free assay,71%

# Repeated from above (study 2):
SMILES,viability [%]
Oc1cc(O)c(Cl)cn1,141
CCCCCCCCCC[C@H](C(=O)O)[C@]1(C(=O)O)CCC(=O)O1,135
